# Experimental data of several laboratories.
# Parts stem from different laboratories: compare values within a part only. Several values in a cell are separate wells, animals, samples, runs or records.
# Chain of UniProt P37173 (whole entry, looked up): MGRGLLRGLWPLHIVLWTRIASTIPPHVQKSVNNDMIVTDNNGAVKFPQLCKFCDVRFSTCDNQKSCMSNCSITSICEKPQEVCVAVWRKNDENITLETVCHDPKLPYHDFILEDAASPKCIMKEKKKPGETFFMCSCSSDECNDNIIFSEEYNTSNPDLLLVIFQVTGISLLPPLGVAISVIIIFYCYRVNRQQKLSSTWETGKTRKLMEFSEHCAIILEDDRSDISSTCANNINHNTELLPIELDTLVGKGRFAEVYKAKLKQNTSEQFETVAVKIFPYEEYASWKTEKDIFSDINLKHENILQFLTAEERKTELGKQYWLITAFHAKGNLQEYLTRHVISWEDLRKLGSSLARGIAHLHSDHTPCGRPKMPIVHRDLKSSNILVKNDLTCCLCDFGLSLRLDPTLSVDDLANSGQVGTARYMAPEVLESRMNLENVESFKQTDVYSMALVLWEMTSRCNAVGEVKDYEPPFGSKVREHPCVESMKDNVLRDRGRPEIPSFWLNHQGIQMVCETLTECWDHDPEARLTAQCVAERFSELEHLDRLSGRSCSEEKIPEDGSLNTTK
# Chain of UniProt Q99759 (whole entry, looked up): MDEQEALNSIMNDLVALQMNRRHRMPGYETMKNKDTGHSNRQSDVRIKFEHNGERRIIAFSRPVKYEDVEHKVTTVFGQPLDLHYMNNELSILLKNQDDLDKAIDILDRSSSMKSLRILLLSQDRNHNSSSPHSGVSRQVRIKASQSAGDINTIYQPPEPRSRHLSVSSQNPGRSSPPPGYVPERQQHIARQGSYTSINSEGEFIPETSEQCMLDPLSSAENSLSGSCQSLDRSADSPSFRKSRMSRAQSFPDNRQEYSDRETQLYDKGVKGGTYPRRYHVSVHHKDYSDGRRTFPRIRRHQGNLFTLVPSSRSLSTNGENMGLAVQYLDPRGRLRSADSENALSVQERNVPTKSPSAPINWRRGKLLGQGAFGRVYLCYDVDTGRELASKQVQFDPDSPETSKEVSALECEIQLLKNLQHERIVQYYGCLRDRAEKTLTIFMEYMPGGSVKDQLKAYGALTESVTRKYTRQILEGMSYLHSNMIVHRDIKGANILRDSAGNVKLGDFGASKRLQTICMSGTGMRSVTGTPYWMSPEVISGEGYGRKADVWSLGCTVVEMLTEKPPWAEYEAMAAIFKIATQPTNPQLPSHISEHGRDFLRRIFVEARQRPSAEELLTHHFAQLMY
# Chain of UniProt O94804 (whole entry, looked up): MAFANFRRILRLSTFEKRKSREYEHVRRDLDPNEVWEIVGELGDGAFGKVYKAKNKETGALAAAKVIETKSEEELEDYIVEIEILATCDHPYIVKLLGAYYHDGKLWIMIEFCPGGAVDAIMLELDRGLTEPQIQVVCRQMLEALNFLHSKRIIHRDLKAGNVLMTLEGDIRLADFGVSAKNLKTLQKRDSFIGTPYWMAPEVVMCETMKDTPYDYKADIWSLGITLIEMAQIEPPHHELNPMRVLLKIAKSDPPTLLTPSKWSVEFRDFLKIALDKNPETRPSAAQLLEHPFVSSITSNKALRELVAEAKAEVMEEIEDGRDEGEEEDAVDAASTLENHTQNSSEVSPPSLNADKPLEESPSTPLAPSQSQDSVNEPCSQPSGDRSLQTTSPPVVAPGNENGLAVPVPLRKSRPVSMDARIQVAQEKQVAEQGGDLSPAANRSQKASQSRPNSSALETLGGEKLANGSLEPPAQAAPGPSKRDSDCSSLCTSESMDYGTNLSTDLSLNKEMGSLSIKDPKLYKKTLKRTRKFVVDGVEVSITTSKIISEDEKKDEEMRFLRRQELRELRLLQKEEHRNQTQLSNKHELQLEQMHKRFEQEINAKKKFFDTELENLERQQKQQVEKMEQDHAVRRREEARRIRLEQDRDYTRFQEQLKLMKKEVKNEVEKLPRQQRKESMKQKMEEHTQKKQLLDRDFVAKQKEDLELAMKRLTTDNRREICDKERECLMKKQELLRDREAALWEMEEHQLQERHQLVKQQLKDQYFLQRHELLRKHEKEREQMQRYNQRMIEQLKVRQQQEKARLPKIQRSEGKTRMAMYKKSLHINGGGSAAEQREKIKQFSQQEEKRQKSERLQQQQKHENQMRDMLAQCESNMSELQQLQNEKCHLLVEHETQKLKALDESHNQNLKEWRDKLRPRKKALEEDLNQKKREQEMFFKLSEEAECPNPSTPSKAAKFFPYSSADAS
# Chain of UniProt Q96RR4 (whole entry, looked up): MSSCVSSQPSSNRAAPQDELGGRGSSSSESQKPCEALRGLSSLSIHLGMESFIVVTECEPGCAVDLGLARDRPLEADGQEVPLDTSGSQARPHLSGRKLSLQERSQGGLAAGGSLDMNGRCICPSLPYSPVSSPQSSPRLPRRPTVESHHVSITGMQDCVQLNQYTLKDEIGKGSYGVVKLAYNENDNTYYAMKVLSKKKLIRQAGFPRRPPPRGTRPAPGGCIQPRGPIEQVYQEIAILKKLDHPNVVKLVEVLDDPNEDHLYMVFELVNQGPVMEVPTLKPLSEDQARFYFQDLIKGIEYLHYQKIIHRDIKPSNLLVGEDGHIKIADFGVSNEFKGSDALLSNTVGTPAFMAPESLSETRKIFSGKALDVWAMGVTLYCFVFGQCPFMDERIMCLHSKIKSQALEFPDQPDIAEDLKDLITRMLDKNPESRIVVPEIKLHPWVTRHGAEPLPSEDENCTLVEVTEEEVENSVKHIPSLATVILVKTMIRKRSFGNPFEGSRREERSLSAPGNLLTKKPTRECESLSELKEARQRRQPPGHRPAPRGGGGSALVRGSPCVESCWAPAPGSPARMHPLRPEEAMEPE
# Chain of UniProt Q00535 (whole entry, looked up): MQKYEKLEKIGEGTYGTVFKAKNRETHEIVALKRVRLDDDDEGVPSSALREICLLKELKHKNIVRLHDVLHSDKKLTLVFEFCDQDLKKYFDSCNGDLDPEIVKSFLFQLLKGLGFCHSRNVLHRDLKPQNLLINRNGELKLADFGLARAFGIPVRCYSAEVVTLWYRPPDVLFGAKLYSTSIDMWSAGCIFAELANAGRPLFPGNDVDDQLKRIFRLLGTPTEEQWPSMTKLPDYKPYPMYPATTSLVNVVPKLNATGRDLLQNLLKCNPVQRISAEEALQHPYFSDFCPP
# Chain of UniProt Q13557 (whole entry, looked up): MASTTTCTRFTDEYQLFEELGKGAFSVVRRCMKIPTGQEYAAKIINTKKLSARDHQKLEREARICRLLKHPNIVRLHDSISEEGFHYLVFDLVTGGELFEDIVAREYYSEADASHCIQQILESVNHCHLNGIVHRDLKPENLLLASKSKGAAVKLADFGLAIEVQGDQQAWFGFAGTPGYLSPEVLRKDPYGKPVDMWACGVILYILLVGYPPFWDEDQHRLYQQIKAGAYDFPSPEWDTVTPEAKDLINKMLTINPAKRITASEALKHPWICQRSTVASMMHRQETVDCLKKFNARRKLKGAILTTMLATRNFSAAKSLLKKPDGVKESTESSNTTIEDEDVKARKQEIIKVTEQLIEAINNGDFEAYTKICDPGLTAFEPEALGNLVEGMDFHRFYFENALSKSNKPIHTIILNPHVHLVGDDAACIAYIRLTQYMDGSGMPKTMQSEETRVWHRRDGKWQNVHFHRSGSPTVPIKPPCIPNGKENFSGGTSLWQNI
# Chain of UniProt P45984 (whole entry, looked up): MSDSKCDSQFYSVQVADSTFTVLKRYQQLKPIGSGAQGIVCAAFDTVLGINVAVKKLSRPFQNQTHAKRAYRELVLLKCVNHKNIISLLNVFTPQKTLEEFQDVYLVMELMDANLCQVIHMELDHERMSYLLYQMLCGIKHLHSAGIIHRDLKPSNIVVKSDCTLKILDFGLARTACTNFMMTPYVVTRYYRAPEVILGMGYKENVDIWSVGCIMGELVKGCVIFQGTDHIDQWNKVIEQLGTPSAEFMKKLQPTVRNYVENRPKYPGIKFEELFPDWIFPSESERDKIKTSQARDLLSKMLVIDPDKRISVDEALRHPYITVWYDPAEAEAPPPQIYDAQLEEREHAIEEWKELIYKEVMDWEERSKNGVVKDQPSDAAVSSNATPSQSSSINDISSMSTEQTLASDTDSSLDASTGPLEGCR
# Chain of UniProt P36897 (whole entry, looked up): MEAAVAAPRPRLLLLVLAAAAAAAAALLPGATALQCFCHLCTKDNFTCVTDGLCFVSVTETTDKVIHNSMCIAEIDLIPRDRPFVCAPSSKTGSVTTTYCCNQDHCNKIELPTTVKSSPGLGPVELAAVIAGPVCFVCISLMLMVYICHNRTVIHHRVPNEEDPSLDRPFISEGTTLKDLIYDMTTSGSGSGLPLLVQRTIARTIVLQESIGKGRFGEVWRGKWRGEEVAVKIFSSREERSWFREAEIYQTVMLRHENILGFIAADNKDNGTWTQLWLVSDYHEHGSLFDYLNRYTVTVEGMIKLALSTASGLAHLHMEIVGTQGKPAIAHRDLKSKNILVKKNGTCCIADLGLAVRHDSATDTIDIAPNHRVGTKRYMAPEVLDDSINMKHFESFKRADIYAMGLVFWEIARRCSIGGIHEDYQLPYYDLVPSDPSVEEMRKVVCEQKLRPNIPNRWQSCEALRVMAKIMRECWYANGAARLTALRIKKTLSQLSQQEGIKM
# Chain of UniProt O96017 (whole entry, looked up): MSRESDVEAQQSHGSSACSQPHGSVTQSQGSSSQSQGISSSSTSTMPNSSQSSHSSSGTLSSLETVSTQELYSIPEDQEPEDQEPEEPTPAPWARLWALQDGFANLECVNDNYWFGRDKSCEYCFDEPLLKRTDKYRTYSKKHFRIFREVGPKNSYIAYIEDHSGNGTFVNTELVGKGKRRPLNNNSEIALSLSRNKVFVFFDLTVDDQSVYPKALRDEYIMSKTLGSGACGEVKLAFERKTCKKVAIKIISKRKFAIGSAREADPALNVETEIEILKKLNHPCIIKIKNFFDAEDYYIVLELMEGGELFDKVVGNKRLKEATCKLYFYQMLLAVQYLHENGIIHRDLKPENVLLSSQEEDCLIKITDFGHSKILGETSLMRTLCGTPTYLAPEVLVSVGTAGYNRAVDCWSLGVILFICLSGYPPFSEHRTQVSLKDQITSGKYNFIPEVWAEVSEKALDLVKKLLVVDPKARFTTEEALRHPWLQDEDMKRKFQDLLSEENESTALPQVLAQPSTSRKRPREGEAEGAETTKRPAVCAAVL

# Block 1
# Compound: CC(=O)N[C@@H](Cc1c[nH]c2ccccc12)C(=O)N[C@@H](CCC(=O)C=[N+]=[N-])C(=O)OC(C)C
# Host: C57BL/6 CES1-/- mice, EL4 tumour
# Route: subcutaneous
# Dose: 0.3 mg/kg/day DON equivalent
# Time: 5 days
# Reading: higher = more metabolite
technique,measured,cells,sample,setting,metabolite peak intensity
LC-MS/MS metabolomics,3-sulfo-L-alanine,,EL4 tumour,normalised to tissue mass,6.32e+06 a.u. and 5.44e+06 a.u. and 3.25e+06 a.u. and 6.2e+06 a.u. and 7.32e+06 a.u. and 3.88e+06 a.u.
UPLC-MS/MS metabolomics,N-acetylserine,,EL4 tumour,normalised to tissue mass,3.69e+07 a.u. and 3.21e+07 a.u. and 2.99e+07 a.u. and 3.84e+07 a.u. and 2.14e+07 a.u. and 2.95e+07 a.u.
UPLC-MS/MS metabolomics,N-acetyltaurine,,EL4 tumour,normalised to tissue mass,1.52e+06 a.u. and 1.05e+06 a.u. and 1.84e+06 a.u. and 2.18e+06 a.u. and 1.39e+06 a.u. and 1.9e+06 a.u.
UPLC-MS/MS,inosine,EL4,tumour,normalised to tissue mass,2.83e+07 a.u. and 2.89e+07 a.u. and 2.07e+07 a.u. and 1.92e+07 a.u. and 2.56e+07 a.u. and 2.95e+07 a.u.
LC-MS/MS metabolomics,phenylpyruvate,,EL4 tumour,,504000 a.u. and 407000 a.u. and 487000 a.u. and 872000 a.u. and 380000 a.u. and 552000 a.u.
LC-MS/MS metabolomics,methylphosphate,,EL4 tumour,,1.02e+06 a.u. and 838000 a.u. and 606000 a.u. and 894000 a.u. and 764000 a.u. and 819000 a.u.

# Block 2
# SMILES: O=c1cc(-c2cccc3c2Sc2ccccc2S3)oc(N2CCOCC2)c1
# Effect on: enzyme activity
# Action: inhibitor
# Concentration: 0.5 µM
# Baseline: control
target,remaining activity [%]
"CHEK2 (Homo sapiens, UniProt O96017)",102
"MAPK9 (Homo sapiens, UniProt P45984)",97.7
"NEK2 (Homo sapiens, UniProt P51955)",103
"CAMKK2 (Homo sapiens, UniProt Q96RR4)",133
"CAMK2D (Homo sapiens, UniProt Q13557)",104
"TGFBR1 (Homo sapiens, UniProt P36897)",98
"TGFBR2 (Homo sapiens, UniProt P37173)",93.4
"STK39 (Homo sapiens, UniProt Q9UEW8)",84
"DAPK1 (Homo sapiens, UniProt P53355)",82.7
"Protein kinase C beta type, isoform beta-I (PRKCB, Homo sapiens, UniProt P05771)",103
"PRKACA (Homo sapiens, UniProt P17612)",99.6
"Tyrosine-protein kinase Lyn, isoform B (LYN, Homo sapiens, UniProt P07948)",116
"Cyclin-dependent kinase 5, with p25 (CDK5, Homo sapiens, UniProt Q00535)",96.8
"Cyclin-dependent kinase 4, with cyclin D1 (CDK4, Homo sapiens, UniProt P11802)",112
"MAP3K3 (Homo sapiens, UniProt Q99759)",137
"GRK3 (Homo sapiens, UniProt P35626)",100
"DAPK2 (Homo sapiens, UniProt Q9UIK4)",98.8
"PRKCA (Homo sapiens, UniProt P17252)",80.3
"STK10 (Homo sapiens, UniProt O94804)",97.1
"OXSR1 (Homo sapiens, UniProt O95747)",96.1

# Block 3
# Cell line: normal-adjacent organoid sample F
# Technique: CellTiter-Glo
# Concentration: 0.1 µM
# Setting: replicate mean
# Baseline: DMSO
Compound,viability
Nc1cnc(N2CCc3cc(S(=O)(=O)Nc4c(F)cc(Cl)cc4F)cc(N4CCCC4=O)c32)nc1,96.5%
O=C(Nc1ccc(-n2nc(-c3cccnc3)cc2C(F)(F)F)cn1)c1ccc(-c2ccccc2)c(F)c1,102%
CNC(=O)c1ccc(Nc2ncc(C(F)(F)F)c(NCc3nccnc3N(C)S(C)(=O)=O)n2)cc1,103%
Cc1ccc(-c2cnc([C@@]3(O)CC[C@H](C(=O)O)C(C)(C)C3)s2)cc1Nc1cccc(C(F)(F)F)n1,101%
O[C@]1(C(F)(F)F)CCCC[C@H]1Nc1ccc(F)cc1,99.3%
CCCCN(CCCC)C(=O)CN1C[C@H](c2cc(OC)c3c(c2)OCO3)[C@@H](C(=O)O)[C@@H]1CC(C)(C)CCC,112%
Nc1c(C(=O)NCc2ccc(C(=O)NCCCC3CCCCC3)cc2)cnn1-c1ccccc1,118%
O=S(=O)(NC1CCC(c2cc(F)ccc2F)(S(=O)(=O)c2ccc(Cl)cc2)CC1)C(F)(F)F (centres unmarked),105%

# Block 4
# SMILES: CCCCCCCCCCCCCCCCOP(=O)([O-])OCC[N+](C)(C)C
tested on,effect on,technique,cells,concentration,setting,inhibition
Leishmania donovani,parasite growth,imaging,THP-1,2 µM,"intracellular, amastigote",61% and 35% and 52% and 51% and 57%
THP-1,host cell growth,,,20 µM,,74% and 70% and 76%
Leishmania donovani,parasite growth,imaging,THP-1,2 nM,"intracellular, amastigote",0%

# Block 5
# SMILES: CC(=O)N1CCN(c2nc(OC[C@@H]3CCCN3C)nc3c2CCN(c2cccc4cccc(Cl)c24)C3)C[C@@H]1CC#N
# Cell line: HEK293
# Technique: CellTiter-Glo
# Baseline: vehicle
concentration,viability
156 nM,108% and 91.9% and 103%
1.25 µM,76.4% and 72.2% and 57.9%
20 µM,0.17% and 0.88% and 0.5%
312 nM,93.5% and 94.6% and 89.6%

# A few entries again (block 1):
technique,measured,cells,sample,setting,metabolite peak intensity
LC-MS/MS metabolomics,methylphosphate,,EL4 tumour,,1.02e+06 a.u. and 838000 a.u. and 606000 a.u. and 894000 a.u. and 764000 a.u. and 819000 a.u.
LC-MS/MS metabolomics,phenylpyruvate,,EL4 tumour,,504000 a.u. and 407000 a.u. and 487000 a.u. and 872000 a.u. and 380000 a.u. and 552000 a.u.
UPLC-MS/MS metabolomics,N-acetylserine,,EL4 tumour,normalised to tissue mass,3.69e+07 a.u. and 3.21e+07 a.u. and 2.99e+07 a.u. and 3.84e+07 a.u. and 2.14e+07 a.u. and 2.95e+07 a.u.
UPLC-MS/MS metabolomics,N-acetyltaurine,,EL4 tumour,normalised to tissue mass,1.52e+06 a.u. and 1.05e+06 a.u. and 1.84e+06 a.u. and 2.18e+06 a.u. and 1.39e+06 a.u. and 1.9e+06 a.u.
LC-MS/MS metabolomics,3-sulfo-L-alanine,,EL4 tumour,normalised to tissue mass,6.32e+06 a.u. and 5.44e+06 a.u. and 3.25e+06 a.u. and 6.2e+06 a.u. and 7.32e+06 a.u. and 3.88e+06 a.u.
